# Published values collected from several papers.
# Numbers after ± are the reported error.
# Organism: Escherichia coli
SMILES,test,test system,conditions,endpoint,result
COc1c(C)c(OS(=O)(=O)c2ccccc2)c(C)c2c1C(=O)CC(c1ccccc1)O2 (centres unmarked),"microbial killing, broth dilution",ATCC25922,,MBC,> 5000 µg/mL
O=C(CCCc1cn(C[C@H]2O[C@@H]3O[C@H]4[C@H](O)[C@@H](O)[C@@H](O[C@H]5[C@H](O)[C@@H](O)[C@@H](O[C@H]6[C@H](O)[C@@H](O)[C@@H](O[C@H]7[C@H](O)[C@@H](O)[C@@H](O[C@H]8[C@H](O)[C@@H](O)[C@@H](O[C@H]9[C@H](O)[C@@H](O)[C@@H](O[C@H]2[C@H](O)[C@H]3O)O[C@@H]9Cn2cc(CCCC(=O)N[C@H]3CCOC3=O)nn2)O[C@@H]8Cn2cc(CCCC(=O)N[C@H]3CCOC3=O)nn2)O[C@@H]7Cn2cc(CCCC(=O)N[C@H]3CCOC3=O)nn2)O[C@@H]6Cn2cc(CCCC(=O)N[C@H]3CCOC3=O)nn2)O[C@@H]5Cn2cc(CCCC(=O)N[C@H]3CCOC3=O)nn2)O[C@@H]4Cn2cc(CCCC(=O)N[C@H]3CCOC3=O)nn2)nn1)N[C@H]1CCOC1=O,"LuxR reporter, antagonist",DH5α sensor strain,"4 µM, together with: OHHL 200 nM",inhibition,26 ± 10%
Cc1ccnc(-c2cc(C(=O)NCCCCCC(=O)N[C@@H](CCCNC(=N)N)C(=O)N[C@@H](Cc3c[nH]c4ccccc34)C(=O)N[C@@H](CCCNC(=N)N)C(=O)N[C@@H](Cc3c[nH]c4ccccc34)C(=O)N[C@@H](CCCNC(=N)N)C(=O)N[C@@H](Cc3c[nH]c4ccccc34)C(N)=O)ccn2)c1,,resistant,"16 µM, light irradiation",reduction in viable count,≥ 3 log10 CFU
CCCCCCCCCCCC(=O)Oc1c(C)c(OC)c2c(/C=C/c3ccccc3)c(CCCCCCCCCC)c(=O)oc2c1C,"microbial killing, broth dilution",ATCC25922,,MBC,> 5000 µg/mL
CC(CCCOC(=O)CCC[N+](C)(C)C)C1CCC2C3CCC4CC(OC(=O)CCC[N+](C)(C)C)CCC4(C)C3CC(OC(=O)CCC[N+](C)(C)C)C12C (centres unmarked),"microbial growth, disc diffusion",ATCC25922,"250 µg/disc, 24 h",inhibition zone,11 mm
CCCCCCCCCC(=O)Oc1c(C)c(OC)c2c(c1C)OC(=O)C(CCCCCCCC)C2(O)C=Cc1ccccc1 (centres unmarked),"microbial killing, broth dilution",ATCC25922,,MBC,> 5000 µg/mL
C/C(=C\c1ccc(O)cc1)C(=O)Nc1ccc(C(=O)N[C@@H](Cc2c[nH]nn2)C(=O)Nc2ccc(C(=O)Nc3ccc(C(=O)Nc4ccc(C(=O)O)cc4)cc3)cc2)cc1,broth microdilution,BW25113,,MIC,0.063 µg/mL
CC(C)C1=CC2=CCC3C(C)(C(=O)OCCC[N+](C)(C)C)CCCC3(C)C2CC1 (centres unmarked),"microbial growth, disc diffusion",ATCC25922,"31.2 µg/disc, 24 h",inhibition zone,9 mm
COc1c(C)c(OS(=O)(=O)c2ccccc2)c(C)c(OS(=O)(=O)c2ccccc2)c1C(=O)/C=C/c1ccccc1,"microbial killing, broth dilution",ATCC25922,,MBC,> 5000 µg/mL
CO[C@@H]1[C@@H](OC)[C@H]2O[C@H]3[C@H](OC)[C@@H](OC)[C@@H](O[C@H]4[C@H](OC)[C@@H](OC)[C@@H](O[C@H]5[C@H](OC)[C@@H](OC)[C@@H](O[C@H]6[C@H](OC)[C@@H](OC)[C@@H](O[C@H]7[C@H](OC)[C@@H](OC)[C@@H](O[C@H]8[C@H](OC)[C@@H](OC)[C@@H](O[C@@H]1[C@@H](Cn1cc(CCCC(=O)N[C@H]9CCOC9=O)nn1)O2)O[C@@H]8Cn1cc(CCCC(=O)N[C@H]2CCOC2=O)nn1)O[C@@H]7Cn1cc(CCCC(=O)N[C@H]2CCOC2=O)nn1)O[C@@H]6Cn1cc(CCCC(=O)N[C@H]2CCOC2=O)nn1)O[C@@H]5Cn1cc(CCCC(=O)N[C@H]2CCOC2=O)nn1)O[C@@H]4Cn1cc(CCCC(=O)N[C@H]2CCOC2=O)nn1)O[C@@H]3Cn1cc(CCCC(=O)N[C@H]2CCOC2=O)nn1,"LuxR reporter, antagonist",DH5α sensor strain,"40 µM, together with: OHHL 200 nM",inhibition,23%
COc1ccc2cc3[n+](cc2c1OC)CCc1cc2c(cc1-3)OCO2.[Cl][Fe-]([Cl])([Cl])[Cl],,,"24 h, 37 °C",MIC50,133 µM
OC[C@H]1O[C@@H]2O[C@H]3[C@H](O)[C@@H](O)[C@@H](O[C@H]4[C@H](O)[C@@H](O)[C@@H](O[C@H]5[C@H](O)[C@@H](O)[C@@H](O[C@H]6[C@H](O)[C@@H](O)[C@@H](O[C@H]7[C@H](O)[C@@H](O)[C@@H](O[C@H]1[C@H](O)[C@H]2O)O[C@@H]7CO)O[C@@H]6CO)O[C@@H]5CO)O[C@@H]4CO)O[C@@H]3CO,"LuxR reporter, antagonist",DH5α sensor strain,"20 µM, together with: OHHL 200 nM",inhibition,1 ± 3%
C=C[C@H]1CC1(NC(=O)C12CC(NC(=O)c3ccc(C#N)cc3)(C1)C2)C(=O)Nc1ccc(C(=O)Nc2ccc(C(=O)Nc3ccc(C(=O)O)cc3)c(O)c2OC(C)C)cc1 (some centres unmarked),,BW25113 WT,,MIC,0.04 µg/mL
O=C(CCCc1cn(C[C@H]2O[C@@H]3O[C@H]4[C@H](O)[C@@H](O)[C@@H](O[C@H]5[C@H](O)[C@@H](O)[C@@H](O[C@H]6[C@H](O)[C@@H](O)[C@@H](O[C@H]7[C@H](O)[C@@H](O)[C@@H](O[C@H]8[C@H](O)[C@@H](O)[C@@H](O[C@H]9[C@H](O)[C@@H](O)[C@@H](O[C@H]2[C@H](O)[C@H]3O)O[C@@H]9CO)O[C@@H]8CO)O[C@@H]7CO)O[C@@H]6CO)O[C@@H]5CO)O[C@@H]4CO)nn1)N[C@H]1CCOC1=O,"LuxR reporter, antagonist",DH5α sensor strain,"200 µM, together with: OHHL 200 nM",inhibition,28 ± 3%
O=C(Oc1cccccc1=O)c1ccc([N+](=O)[O-])cc1,"microbial growth, broth dilution",ATCC35218,,MIC80,> 100 µM
CN[C@H](CC(C)C)C(=O)N[C@H]1C(=O)N[C@@H](CC(N)=O)C(=O)N[C@H]2C(=O)N[C@H]3C(=O)N[C@H](C(=O)N[C@H](C(=O)O)c4cc(O)cc(O)c4-c4cc3ccc4O)[C@H](O)c3ccc(c(Cl)c3)Oc3cc2cc(c3O[C@@H]2O[C@H](CO)[C@@H](O)[C@H](O)[C@H]2O[C@H]2C[C@](C)(N)[C@H](O)[C@H](C)O2)Oc2ccc(cc2Cl)[C@H]1O,"microbial growth, broth dilution",25922,,MIC,64 µM
CC[C@H](C)[C@H](NC(=O)[C@H](CC1CCCCC1)NC(=O)[C@H](CC(C)C)NC(=O)[C@@H](N)CCCN)C(=O)N[C@H](Cc1ccccc1)C(=O)N[C@@H](Cc1cn(Cc2ccccc2)cn1)C(N)=O,bacterial growth,ATCC 35218,,IC50,> 20 µg/mL
O=C(CCCc1cn(C[C@H]2O[C@@H]3O[C@H]4[C@H](O)[C@@H](O)[C@@H](O[C@H]5[C@H](O)[C@@H](O)[C@@H](O[C@H]6[C@H](O)[C@@H](O)[C@@H](O[C@H]7[C@H](O)[C@@H](O)[C@@H](O[C@H]8[C@H](O)[C@@H](O)[C@@H](O[C@H]2[C@H](O)[C@H]3O)O[C@@H]8Cn2cc(CCCC(=O)N[C@H]3CCOC3=O)nn2)O[C@@H]7Cn2cc(CCCC(=O)N[C@H]3CCOC3=O)nn2)O[C@@H]6Cn2cc(CCCC(=O)N[C@H]3CCOC3=O)nn2)O[C@@H]5Cn2cc(CCCC(=O)N[C@H]3CCOC3=O)nn2)O[C@@H]4Cn2cc(CCCC(=O)N[C@H]3CCOC3=O)nn2)nn1)N[C@H]1CCOC1=O,"LuxR reporter, antagonist",DH5α sensor strain,"4 µM, together with: OHHL 200 nM",inhibition,7 ± 2%
CC(CCCOC(=O)CCC[N+](C)(C)C)C1CCC2C3CCC4CC(OC(=O)CCC[N+](C)(C)C)CCC4(C)C3CCC12C (centres unmarked),"microbial growth, disc diffusion",ATCC25922,"62.5 µg/disc, 24 h",inhibition zone,13 mm
CO[C@@H]1[C@@H](OC)[C@H]2O[C@H]3[C@H](OC)[C@@H](OC)[C@@H](O[C@H]4[C@H](OC)[C@@H](OC)[C@@H](O[C@H]5[C@H](OC)[C@@H](OC)[C@@H](O[C@H]6[C@H](OC)[C@@H](OC)[C@@H](O[C@H]7[C@H](OC)[C@@H](OC)[C@@H](O[C@@H]1[C@@H](Cn1cc(CCCC(=O)N[C@H]8CCOC8=O)nn1)O2)O[C@@H]7Cn1cc(CCCC(=O)N[C@H]2CCOC2=O)nn1)O[C@@H]6Cn1cc(CCCC(=O)N[C@H]2CCOC2=O)nn1)O[C@@H]5Cn1cc(CCCC(=O)N[C@H]2CCOC2=O)nn1)O[C@@H]4Cn1cc(CCCC(=O)N[C@H]2CCOC2=O)nn1)O[C@@H]3Cn1cc(CCCC(=O)N[C@H]2CCOC2=O)nn1,"LuxR reporter, antagonist",DH5α sensor strain,"100 µM, together with: OHHL 200 nM",inhibition,29 ± 4%
N=C(N)NCCC[C@@H]1NC(=O)[C@H](CCCNC(=N)N)NC(=O)[C@@H](C(c2ccccc2)c2ccccc2)NC(=O)[C@H](Cc2c[nH]c3ccccc23)NC(=O)[C@@H](C(c2ccccc2)c2ccccc2)NC(=O)[C@@H](CCCNC(=N)N)NC(=O)[C@@H](CCCNC(=N)N)NC1=O,,ATCC BAA-2452,4 x MIC,time to complete killing,2 h
O=c1c(O)ccccc1O,"microbial growth, broth dilution",ATCC35218,,MIC80,66.7 µM
CC1=N/C(=C\c2cc(F)c(O)c(F)c2)C(=O)N1Cc1ccc(CO)cc1,"cytoplasmic accumulation, flow cytometry",,,lowest detectable concentration,10 nM

# A few entries again:
SMILES,test,test system,conditions,endpoint,result
COc1ccc2cc3[n+](cc2c1OC)CCc1cc2c(cc1-3)OCO2.[Cl][Fe-]([Cl])([Cl])[Cl],,,"24 h, 37 °C",MIC50,133 µM
COc1c(C)c(OS(=O)(=O)c2ccccc2)c(C)c(OS(=O)(=O)c2ccccc2)c1C(=O)/C=C/c1ccccc1,"microbial killing, broth dilution",ATCC25922,,MBC,> 5000 µg/mL
